Published values collected from several papers.
Lines come from different studies, so protocols differ. pIC50: −log10 of the molar value.
4'-phosphopantetheinyl transferase PptT: 4'-phosphopantetheinyl transferase PptT (Mycobacterium tuberculosis, UniProt O33336)
UniProt P42336, sequence (whole entry, unmodified, looked up): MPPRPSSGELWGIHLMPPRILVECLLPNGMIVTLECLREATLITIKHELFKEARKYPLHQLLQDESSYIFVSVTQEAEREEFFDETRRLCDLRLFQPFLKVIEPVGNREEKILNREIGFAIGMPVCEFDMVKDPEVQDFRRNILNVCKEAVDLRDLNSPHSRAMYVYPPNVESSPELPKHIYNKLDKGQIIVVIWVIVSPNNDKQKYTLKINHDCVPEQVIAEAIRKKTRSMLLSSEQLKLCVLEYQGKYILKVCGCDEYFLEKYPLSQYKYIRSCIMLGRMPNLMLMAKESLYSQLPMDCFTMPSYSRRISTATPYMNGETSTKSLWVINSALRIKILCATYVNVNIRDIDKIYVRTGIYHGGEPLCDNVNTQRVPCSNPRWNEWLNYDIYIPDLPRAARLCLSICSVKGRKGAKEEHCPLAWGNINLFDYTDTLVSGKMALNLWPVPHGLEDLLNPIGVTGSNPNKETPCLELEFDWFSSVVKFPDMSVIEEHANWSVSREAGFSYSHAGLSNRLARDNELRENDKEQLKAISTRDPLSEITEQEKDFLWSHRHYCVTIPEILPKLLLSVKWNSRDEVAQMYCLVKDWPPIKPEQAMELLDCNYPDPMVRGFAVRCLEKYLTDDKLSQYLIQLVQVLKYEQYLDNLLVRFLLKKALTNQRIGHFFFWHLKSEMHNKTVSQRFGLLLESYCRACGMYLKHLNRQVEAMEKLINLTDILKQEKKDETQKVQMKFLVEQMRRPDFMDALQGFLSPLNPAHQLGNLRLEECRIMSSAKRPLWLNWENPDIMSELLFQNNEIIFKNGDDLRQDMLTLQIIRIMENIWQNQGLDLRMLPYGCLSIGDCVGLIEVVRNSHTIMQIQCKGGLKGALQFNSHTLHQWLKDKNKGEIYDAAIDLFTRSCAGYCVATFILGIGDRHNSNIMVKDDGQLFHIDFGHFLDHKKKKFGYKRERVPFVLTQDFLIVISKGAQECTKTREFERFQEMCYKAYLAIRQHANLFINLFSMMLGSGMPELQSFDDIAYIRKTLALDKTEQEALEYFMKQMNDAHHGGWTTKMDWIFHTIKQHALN
UniProt O33336, sequence (whole entry, looked up): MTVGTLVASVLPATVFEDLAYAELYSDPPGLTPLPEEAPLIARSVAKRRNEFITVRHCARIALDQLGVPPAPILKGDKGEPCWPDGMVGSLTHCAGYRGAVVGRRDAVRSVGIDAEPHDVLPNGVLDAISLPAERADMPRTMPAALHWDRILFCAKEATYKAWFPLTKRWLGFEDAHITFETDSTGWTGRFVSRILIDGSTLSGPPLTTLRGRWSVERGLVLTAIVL
UniProt P25100, sequence (whole entry, looked up): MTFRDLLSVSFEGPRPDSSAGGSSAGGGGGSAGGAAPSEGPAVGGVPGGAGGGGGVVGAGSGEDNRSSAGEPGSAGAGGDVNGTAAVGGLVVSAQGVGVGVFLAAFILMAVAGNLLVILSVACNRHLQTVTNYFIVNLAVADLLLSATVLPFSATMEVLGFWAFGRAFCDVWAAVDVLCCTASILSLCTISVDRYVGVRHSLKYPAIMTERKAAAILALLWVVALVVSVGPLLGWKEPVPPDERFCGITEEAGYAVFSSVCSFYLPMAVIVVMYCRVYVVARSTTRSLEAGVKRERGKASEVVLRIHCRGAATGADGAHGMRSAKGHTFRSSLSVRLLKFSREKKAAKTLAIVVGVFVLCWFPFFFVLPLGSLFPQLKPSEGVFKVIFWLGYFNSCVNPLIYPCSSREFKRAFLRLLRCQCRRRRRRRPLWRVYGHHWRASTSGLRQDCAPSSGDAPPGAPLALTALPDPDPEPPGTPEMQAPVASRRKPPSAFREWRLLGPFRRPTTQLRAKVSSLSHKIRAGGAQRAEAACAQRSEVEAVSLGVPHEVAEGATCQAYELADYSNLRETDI
UniProt P21728, sequence (whole entry, looked up): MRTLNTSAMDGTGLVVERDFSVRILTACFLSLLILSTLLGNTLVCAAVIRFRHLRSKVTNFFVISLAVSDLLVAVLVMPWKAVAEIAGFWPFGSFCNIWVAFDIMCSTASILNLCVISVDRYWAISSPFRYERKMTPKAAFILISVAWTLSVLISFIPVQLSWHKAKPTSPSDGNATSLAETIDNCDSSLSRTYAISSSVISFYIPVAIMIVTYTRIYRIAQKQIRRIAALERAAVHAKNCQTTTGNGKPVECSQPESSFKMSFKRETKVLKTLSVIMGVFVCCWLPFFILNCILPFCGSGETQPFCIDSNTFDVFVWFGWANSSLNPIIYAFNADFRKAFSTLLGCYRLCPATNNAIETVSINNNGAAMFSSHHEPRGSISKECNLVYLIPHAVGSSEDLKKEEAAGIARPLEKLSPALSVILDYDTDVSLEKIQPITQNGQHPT
UniProt P08912, sequence (whole entry, looked up): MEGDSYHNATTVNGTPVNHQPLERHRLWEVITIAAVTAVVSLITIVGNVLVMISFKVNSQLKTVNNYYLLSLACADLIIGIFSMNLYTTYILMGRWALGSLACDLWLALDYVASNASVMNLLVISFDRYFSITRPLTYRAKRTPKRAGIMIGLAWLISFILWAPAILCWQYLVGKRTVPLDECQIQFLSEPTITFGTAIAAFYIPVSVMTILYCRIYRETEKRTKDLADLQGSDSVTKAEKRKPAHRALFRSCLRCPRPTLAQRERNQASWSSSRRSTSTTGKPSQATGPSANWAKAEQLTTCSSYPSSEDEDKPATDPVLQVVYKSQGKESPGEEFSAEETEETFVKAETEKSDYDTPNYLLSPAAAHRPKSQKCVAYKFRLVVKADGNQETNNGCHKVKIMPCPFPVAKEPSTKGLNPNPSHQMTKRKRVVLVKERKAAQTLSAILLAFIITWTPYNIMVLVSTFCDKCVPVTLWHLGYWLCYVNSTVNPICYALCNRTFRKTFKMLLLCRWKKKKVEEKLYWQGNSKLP
UniProt P07333, sequence (whole entry, looked up): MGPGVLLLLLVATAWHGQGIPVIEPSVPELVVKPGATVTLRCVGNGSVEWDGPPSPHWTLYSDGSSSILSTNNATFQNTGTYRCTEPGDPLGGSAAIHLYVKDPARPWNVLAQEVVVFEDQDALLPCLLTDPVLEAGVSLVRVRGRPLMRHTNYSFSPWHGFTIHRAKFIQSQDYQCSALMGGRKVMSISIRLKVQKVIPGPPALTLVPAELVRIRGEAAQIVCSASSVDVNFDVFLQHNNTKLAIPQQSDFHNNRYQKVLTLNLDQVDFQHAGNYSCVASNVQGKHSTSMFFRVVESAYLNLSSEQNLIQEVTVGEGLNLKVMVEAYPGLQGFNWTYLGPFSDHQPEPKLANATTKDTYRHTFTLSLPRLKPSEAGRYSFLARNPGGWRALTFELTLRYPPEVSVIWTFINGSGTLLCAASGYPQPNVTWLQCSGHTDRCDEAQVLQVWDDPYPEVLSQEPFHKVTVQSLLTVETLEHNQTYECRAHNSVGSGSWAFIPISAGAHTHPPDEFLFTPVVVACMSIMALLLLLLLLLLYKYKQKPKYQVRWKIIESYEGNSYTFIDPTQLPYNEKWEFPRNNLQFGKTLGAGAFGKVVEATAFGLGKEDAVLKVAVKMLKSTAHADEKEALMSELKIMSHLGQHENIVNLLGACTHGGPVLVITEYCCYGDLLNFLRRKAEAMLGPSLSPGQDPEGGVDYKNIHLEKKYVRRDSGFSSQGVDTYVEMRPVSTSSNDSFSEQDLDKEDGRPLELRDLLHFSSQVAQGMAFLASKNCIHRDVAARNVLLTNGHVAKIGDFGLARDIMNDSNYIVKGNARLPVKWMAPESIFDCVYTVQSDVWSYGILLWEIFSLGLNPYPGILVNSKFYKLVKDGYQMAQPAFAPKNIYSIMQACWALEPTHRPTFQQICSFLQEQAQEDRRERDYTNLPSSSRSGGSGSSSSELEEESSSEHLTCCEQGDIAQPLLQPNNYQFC
UniProt Q13555, sequence (whole entry, looked up): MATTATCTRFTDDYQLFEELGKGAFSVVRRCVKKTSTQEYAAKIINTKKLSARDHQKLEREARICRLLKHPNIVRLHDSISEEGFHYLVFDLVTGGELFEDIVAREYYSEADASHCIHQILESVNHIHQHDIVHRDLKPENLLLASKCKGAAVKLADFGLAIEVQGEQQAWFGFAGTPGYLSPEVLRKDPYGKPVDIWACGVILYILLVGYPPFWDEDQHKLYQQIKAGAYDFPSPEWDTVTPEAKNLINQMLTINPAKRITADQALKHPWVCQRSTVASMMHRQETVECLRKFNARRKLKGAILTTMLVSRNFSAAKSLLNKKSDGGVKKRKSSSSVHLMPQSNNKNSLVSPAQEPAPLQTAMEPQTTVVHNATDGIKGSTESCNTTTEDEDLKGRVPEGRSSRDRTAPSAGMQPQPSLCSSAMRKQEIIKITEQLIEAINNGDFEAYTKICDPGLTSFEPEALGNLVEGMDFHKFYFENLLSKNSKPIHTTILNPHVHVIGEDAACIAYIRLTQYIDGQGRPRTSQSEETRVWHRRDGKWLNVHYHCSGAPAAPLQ
UniProt P41595, sequence (whole entry, looked up): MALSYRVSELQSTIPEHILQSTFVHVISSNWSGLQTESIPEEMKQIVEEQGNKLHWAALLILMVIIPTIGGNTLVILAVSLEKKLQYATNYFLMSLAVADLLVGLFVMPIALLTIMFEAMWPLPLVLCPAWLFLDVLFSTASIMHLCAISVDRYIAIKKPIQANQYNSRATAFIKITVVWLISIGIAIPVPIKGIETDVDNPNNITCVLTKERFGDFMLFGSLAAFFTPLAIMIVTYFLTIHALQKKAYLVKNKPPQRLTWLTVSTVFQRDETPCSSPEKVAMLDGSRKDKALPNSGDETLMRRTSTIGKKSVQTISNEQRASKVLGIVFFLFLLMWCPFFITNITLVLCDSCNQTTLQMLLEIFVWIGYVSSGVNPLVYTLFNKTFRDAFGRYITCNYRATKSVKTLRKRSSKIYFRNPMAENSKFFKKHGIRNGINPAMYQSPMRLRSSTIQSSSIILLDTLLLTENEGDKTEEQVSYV

SMILES | target | assay | setting | quantity | value
CN1CC[C@]2(C)c3cc(OC(=O)Nc4ccccc4)ccc3N(C)[C@H]12 | CHRM5 (Homo sapiens, UniProt P08912) | ligand displacement, radioligand | 10 µM | inhibition | 0%
CC(C)CC(=O)OC[C@H]1O[C@@](C#N)(c2ccc3c(N)ncnn23)[C@H](O)[C@@H]1O | ADRA1D (Homo sapiens, UniProt P25100) | cell-free assay | 20 µM | inhibition | 1%
Nc1ncc(-c2nc(N3CCOCC3)nc(N3CCOCC3)n2)c(C(F)F)n1 | MAP3K12 (Homo sapiens, UniProt Q12852) | binding, competition with immobilised ligand | 10 µM | remaining binding | 91%
c1cncc([C@@H]2CCCN2)c1 | DRD1 (Homo sapiens, UniProt P21728) | ligand displacement | 50 µM | inhibition | -11%
C#Cc1n[nH]c2c(-c3cn([C@@H](C)c4ccccn4)c(=O)[nH]c3=O)cc(F)cc12 | CSF1R (Homo sapiens, UniProt P07333) | enzyme activity, inhibitor | 0.1 µM | inhibition | 1.1%
Cc1nn(C)cc1-c1nc2c(N3CCN(Cc4ccc(Cl)cc4)CC3)c(Cl)cnc2[nH]1 | PIK3CA (Homo sapiens, UniProt P42336, I800L) | binding, competition with immobilised ligand | 1 µM | remaining binding | 90%
CNC1(c2ccccc2Cl)CCCCC1=O (racemic) | MAPK3 (Homo sapiens, UniProt P27361) | enzyme activity, inhibitor | 30 µM | inhibition | 1%
[2H]c1c([2H])c([C@]2([2H])CCCN2C(=O)C(C)(C)Oc2ccc3cn[nH]c3c2)c([2H])c([2H])c1C([2H])([2H])[2H] | CAMK2G (Homo sapiens, UniProt Q13555) | binding, competition with immobilised ligand | 1 µM | remaining binding | 83%
CN1CCCC(Cn2c(=S)[nH]c3ccc(Cl)cc3c2=O)C1 (stereo not drawn) | 4'-phosphopantetheinyl transferase PptT | enzyme activity, inhibitor, FP | – | pIC50 | 4.84
COc1cc(CCNC(C)c2ccccc2O)c(OC)cc1C#N (stereo not drawn) | HTR2B (Homo sapiens, UniProt P41595) | G protein activation, agonist, BRET | – | Emax | 45%
Cc1cc2c(=O)n(Cc3cccnc3)c(=S)[nH]c2cn1 | 4'-phosphopantetheinyl transferase PptT | enzyme activity, inhibitor, FP | – | pIC50 | 6.13
COc1ncccc1-c1cnn2ccc(N3CCN(C(=O)OC(C)C)CC3)nc12 | PIK3CA (Homo sapiens, UniProt P42336) | binding, competition with immobilised ligand | 1 µM | remaining binding | 81%

For quick reference, copied from above:
SMILES | target | assay | setting | quantity | value
CC(C)CC(=O)OC[C@H]1O[C@@](C#N)(c2ccc3c(N)ncnn23)[C@H](O)[C@@H]1O | ADRA1D (Homo sapiens, UniProt P25100) | cell-free assay | 20 µM | inhibition | 1%
C#Cc1n[nH]c2c(-c3cn([C@@H](C)c4ccccn4)c(=O)[nH]c3=O)cc(F)cc12 | CSF1R (Homo sapiens, UniProt P07333) | enzyme activity, inhibitor | 0.1 µM | inhibition | 1.1%
